# Experimental data from different studies.
# Numbered parts are unrelated; each lists some results of a single study. Substitutions count along the parent as printed.

# Block 1 — technique: RNA Bind-n-Seq; form: RNA; medium: in vitro; concentration: 365 nM; baseline: no-protein control; reading: higher = stronger binding
# Target: RNA binding protein fox-1 homolog 2, RRM domain, GST-SBP tag (RBFOX2, Homo sapiens, UniProt O43251-10, residues 100-194)
# Setting: natural RNA segment, single round, ends assumed
# All sequences stand within: GGGAGUUCUACAGUCCGACGAUC … UGGAAUUCUCGGGUGCCAA
# Residues (chain): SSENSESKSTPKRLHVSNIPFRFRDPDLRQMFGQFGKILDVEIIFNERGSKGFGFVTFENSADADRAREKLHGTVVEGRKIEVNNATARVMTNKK
Oligonucleotide,RBNS enrichment (R)
UAAGAGUUAAAUAUUACUGAAUUUCAGACGUUCAAAUUGAUCAUCAGAAAUCCUUUAAAACAAUUACCUAAAAGAAACCAAAAAUCCUGCCUUCUUUGUUGGGGGGAGAA,0.419
UGCAUGUCACACCUCCUUUUCCUUUGCUUCACUUCUGUCAACUGUAGCGACUUUGGUGUGCAGUGAGAUGCUCACCUUUAGCCUCUGCUCCCCUAACUAGGCUGGCACUU,1.3
CGGGAACCCAUUCACUUAGCGUUUGCUCCAGUAGCUUUCCCUCUGCUACCAAUGCAGAUAAACGCGGCUUGUUUUACUCAGGCAAGAGAAUGUGAAUAGUGCCAAGAAAA,0.363
GUGGAUGUUUAGUGCAGCCACAGACUUGUAUUUUGAUCCCCAAUUUUUUUUUGAAAGAGUUCUCCUCAUAGGAGGAUGAUUCAGCAUCAGAAGAAGAAGGAACCCAUAGC,0.413
GUAUGCAUACAUGCCCCUCACCCUACCCCAGGGACCAUGGUUCCUAGGAUCUCACUGCCUCCCUCUCUGGCCUUCCUGUCCCCUCCCUUCAGCUAUGACAGCUGGUGUGG,0.322

# Block 2 — technique: protein binding microarray; form: double-stranded DNA, one strand shown; medium: in vitro; concentration: not given; baseline: not given; reading: higher = stronger binding
# Target: Histone acetyltransferase KAT6A, winged helix 1, GST fusion (KAT6A, Homo sapiens, UniProt Q92794, residues 1-85)
# Setting: 8-mer, flanks averaged, mean of 2 arrays, mostly near background
# Residues (chain): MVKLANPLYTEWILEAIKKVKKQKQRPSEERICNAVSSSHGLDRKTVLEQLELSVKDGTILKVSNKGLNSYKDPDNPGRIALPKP
Oligonucleotide,E-score
CGATTCAG,-0.0736
CTATCGAC,0.00918
GGCGCTGA,0.282
CAGCTATC,-0.226
ACCGCCTG,0.175
AGCACCGC,0.26
ACGTTCTA,-0.108

# Block 3 — target: CCNE2, cyclin fold, Cln2 fusion (human); technique: yeast growth competition, sequencing; medium: yeast; setting: weak parent motif; baseline: not given; reading: higher = stronger binding
# Starting sequence: SLBP docking peptide (human); ARYKRKLLINDFG
Substitution,normalised enrichment score
ARCKRKLLINDFG [Y3C],0.409
ARYKRKLLINDWG [F12W],0.398
ARYKRKLLINDNG [F12N],1.23
ARPKRKLLINDFG [Y3P],0.0704
ARYKRKRLINDFG [L7R],0.85
AAYKRKLLINDFG [R2A],0.409

# Mixed results
Substance,target,test,test system,conditions,how to read,quantity,value
"PhoQ, residues 284 288 289 292 302 303 AGGCYF","PhoP, residues 12 14 15 18 19 NMSFL (Escherichia coli, UniProt P23836)","Sort-seq, measured: YFP reporter",E. coli,"PhoQ-PhoP variant library, together with: 10 µM Mg2+","baseline: high Mg2+ state, higher = stronger signaling",fold induction,15.6

# Some of these lines once more (block 3):
Substitution,normalised enrichment score
AAYKRKLLINDFG [R2A],0.409
ARPKRKLLINDFG [Y3P],0.0704
